Results pooled from the literature.
Every numbered part comes from another study and shows a few of its results, in no order.

Series 1
Target: RNA binding protein fox-1 homolog 2, RRM domain, GST-SBP tag (RBFOX2, Homo sapiens, UniProt O43251-10, residues 100-194)
Technique: RNA Bind-n-Seq
Form: RNA
Sample: in vitro
Concentration: 365 nM
Notes: natural RNA segment, single round, ends assumed
Reference: no-protein control
Reading: higher = stronger binding
Construct (chain): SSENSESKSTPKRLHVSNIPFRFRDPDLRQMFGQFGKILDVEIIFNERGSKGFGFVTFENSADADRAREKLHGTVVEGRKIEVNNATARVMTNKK
For `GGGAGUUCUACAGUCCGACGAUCCAGCCAGGUUCUUCAGGUGCUUCUUAAUCAGCCCCUCUGCUCCAGAUGGACCUUUCCCUCCAUGUAGCUUUUCCUCAGAGUCGAUGAGAAGUGAAUGUUGUCUUUGGUCAUGGAAUUCUCGGGUGCCAA`, “RBNS enrichment (R)” read 0.365.
For `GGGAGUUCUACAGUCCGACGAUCAUGCUUUUUGUAUGUAUAUCACAUAGAGUAGGUUGGUUUCCUGAGUAAUUGGGAUUCCAACUAGAUAGUCAUUGGUGUGACCAUAAUAAAAACAAAAGCUAAAAUAAAAGUGGAAUUCUCGGGUGCCAA`, “RBNS enrichment (R)” read 0.38.
Under “RBNS enrichment (R)”, `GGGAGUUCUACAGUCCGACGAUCUUGUCACUGGACUGUCUCUGGGCCUGCUUAGACGGGGAUUGACACACAGAAUGGAACUGUGAGUGGAGAGAUGAAUAAGUUGCCCCCCCAGCCCCCCUUCCCAUUUGUUUUGGAAUUCUCGGGUGCCAA` is recorded as 0.374.
`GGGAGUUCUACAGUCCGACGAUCCUAAAAAUAGUUUAUUGUAUCUGACAAGAAACUUACUUAACCAUUGUGUCCUUCCCAUCUUUUUUGUCAUCUUUGUUUUCUUCAAAUGCCCUCCUCCCAUCUGCCUUGAGUGGAAUUCUCGGGUGCCAA` — result for “RBNS enrichment (R)”: 1.49.
Under “RBNS enrichment (R)”, `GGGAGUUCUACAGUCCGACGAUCAUGAUGAACAUGGAGCUGCAUCUUUUUAAACGUUGUUUUUUGAUGCUUCAGACUCUUAAUGCUUUUAUAUAAAGCUAUCAACUGUAUGUUGAUCACAGUUUAUAAGAAAGUGGAAUUCUCGGGUGCCAA` is recorded as 0.325.
`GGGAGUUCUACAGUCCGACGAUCGCGCCCCUCAGAAAGCCAUGGCAGCCAUGGAUGGCCAGAGUGAGACUGGACGCCACUGGGCUGGAGCAGGGGGCAGUCCAGGGUUGUGGGGACACAGAUGAGGGCUGGGAUGGAAUUCUCGGGUGCCAA` — result for “RBNS enrichment (R)”: 1.27.
Under “RBNS enrichment (R)”, `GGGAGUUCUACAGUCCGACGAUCAAUAGAAGCAUAUAAAACAUUGUAUGUAAAUUGCAUCUUCAUACUAGCAAACAAGUUAACAAAUGAUAAUAAAUGCAAUUCAGUUUUGGAUGUUGGUCCACAUUGUCAAGUGGAAUUCUCGGGUGCCAA` is recorded as 0.526.
Under “RBNS enrichment (R)”, `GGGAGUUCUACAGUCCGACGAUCACCCCCAACCCUGCUCUUGGGUACCCAGAGGGGUCAUUUCUGAAUCCCUUGCCCAGAGGACAGACCUCCGGGGCCCAUCUUGGCCCUGGGAAAGGGCUCUCCUCUCUGAUUGGAAUUCUCGGGUGCCAA` is recorded as 0.385.

Series 2
Target: Centromere-binding protein 1, full length, N-terminal tag (CBF1, Saccharomyces cerevisiae, UniProt P17106, residues 1-351)
Chain of UniProt P17106 (whole entry, looked up): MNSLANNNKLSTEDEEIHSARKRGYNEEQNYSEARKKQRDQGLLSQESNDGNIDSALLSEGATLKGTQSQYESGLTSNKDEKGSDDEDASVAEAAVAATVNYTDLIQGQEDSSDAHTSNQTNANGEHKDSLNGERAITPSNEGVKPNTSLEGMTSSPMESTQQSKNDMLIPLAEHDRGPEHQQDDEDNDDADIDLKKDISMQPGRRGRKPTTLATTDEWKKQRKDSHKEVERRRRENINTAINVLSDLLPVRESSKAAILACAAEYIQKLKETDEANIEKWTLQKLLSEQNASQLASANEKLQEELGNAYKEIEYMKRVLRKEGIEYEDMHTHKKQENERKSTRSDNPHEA
Technique: protein-binding microarray
Form: double-stranded DNA, one strand shown
Sample: in vitro
Concentration: 0.8 µM
Notes: whole 60-bp probe, no competitor
Reading: higher = stronger binding
With `CTACCGTTAAACTGTTTCACGTTATCAAGATTATTCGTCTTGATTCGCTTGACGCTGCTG` the fluorescence intensity was 869 a.u.
The fluorescence intensity of `CTATGTTGTTATATTCACGTGCCTGTTTGCTTTTTCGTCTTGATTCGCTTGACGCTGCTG` is reported as 5450 a.u.
`CTAATGAATGAGAACCTCATGATTGTAAACGAGTTCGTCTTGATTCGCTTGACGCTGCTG` has a fluorescence intensity of 493 a.u.
`GAACTCCACGGTGAGAACGTGATGTGATAGCCGTAGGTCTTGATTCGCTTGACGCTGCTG` has a fluorescence intensity of 1980 a.u.
`GAAGAATATATACTCCACATGACATACGAAATATAGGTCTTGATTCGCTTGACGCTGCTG` has a fluorescence intensity of 1130 a.u.
With `GAAAGAATACTTGATGAACAGGTGAAACTTGAATAGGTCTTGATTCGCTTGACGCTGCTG` the fluorescence intensity was 575 a.u.
`GAATTGGTCATATTAAACATGACAGTTTAATAATAGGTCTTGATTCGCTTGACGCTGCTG` gave a fluorescence intensity of 588 a.u.
`CTACATCTGTACCACCACATGCTGTGTAGTTATTTCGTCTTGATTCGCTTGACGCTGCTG` has a fluorescence intensity of 623 a.u.
For `GAATTTTCATAATGTCACGTGCACTATCAATAATAGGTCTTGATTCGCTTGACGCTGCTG`, the fluorescence intensity was 19400 a.u.
For `GAAAATAATAATATACACGTTATCATTTTTTATTAGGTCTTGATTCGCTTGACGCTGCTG`, the fluorescence intensity was 868 a.u.
`CTAAATCGCATTATATACGTGGCACCTACAGTCTTCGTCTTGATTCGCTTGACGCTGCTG` gave a fluorescence intensity of 491 a.u.
For `CTACACGTGATTTAATATATCCTGTTTTTTTTTTTCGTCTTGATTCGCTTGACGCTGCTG`, the fluorescence intensity was 9110 a.u.
With `CTATAGGCTAAACGGCACATGTTAACTTTTTTCTTCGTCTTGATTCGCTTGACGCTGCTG` the fluorescence intensity was 871 a.u.
`GAAAACAACTTTTATCATCAGATTGTGATACGATAGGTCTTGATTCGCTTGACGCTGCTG` gave a fluorescence intensity of 529 a.u.
For `CTAAATAATCTAAGACACGTTGCATTATACATGTTCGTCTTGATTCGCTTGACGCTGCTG`, the fluorescence intensity was 588 a.u.
With `CTAACTTTCCAGATTCAGATCACAGCAATATAGTTCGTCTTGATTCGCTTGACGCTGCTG` the fluorescence intensity was 590 a.u.
For `GAAAAGGCCACCGCTGGTGACACCCATTTGGGTTAGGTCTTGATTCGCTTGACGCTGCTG`, the fluorescence intensity was 483 a.u.
`CTATTTTATCACCGTCTCACCATATCCCACGACTTCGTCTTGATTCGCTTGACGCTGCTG` has a fluorescence intensity of 544 a.u.
With `CTAATAAATGTGCGTCACGTGGCCTTGTGTCTCTTCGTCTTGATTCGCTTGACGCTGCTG` the fluorescence intensity was 14700 a.u.

Series 3
Target: RING finger protein unkempt homolog, zinc fingers 1-6, SBP tag (UNK, Homo sapiens, UniProt Q9C0B0, residues 30-357)
Chain of UniProt Q9C0B0 (30-357, looked up): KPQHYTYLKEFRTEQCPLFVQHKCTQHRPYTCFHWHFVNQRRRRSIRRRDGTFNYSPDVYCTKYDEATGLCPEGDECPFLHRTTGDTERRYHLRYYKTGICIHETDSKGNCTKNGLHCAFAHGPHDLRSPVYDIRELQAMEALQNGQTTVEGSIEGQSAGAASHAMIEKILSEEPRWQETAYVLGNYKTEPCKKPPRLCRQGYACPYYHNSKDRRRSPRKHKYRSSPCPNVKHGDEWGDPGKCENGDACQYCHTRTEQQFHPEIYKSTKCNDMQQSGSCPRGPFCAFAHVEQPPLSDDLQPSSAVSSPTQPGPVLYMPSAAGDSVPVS
Technique: RNA Bind-n-Seq
Form: RNA
Sample: in vitro
Concentration: 100 nM
Notes: RNA with constant flanks, vertebrate orthologous sites, ends assumed
Reference: input RNA pool
Reading: higher = stronger binding
`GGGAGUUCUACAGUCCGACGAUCCGCCUCCGGUGACAUUUGGCCUGGCCUGUCGGCCUACGACAAUAGUCCCAGAUCACCCCACAGUCCUUCUAUCGCCACACCGCCUAGCCAGAGUUCCUCCUGCUCCGACGCGCCUUUACUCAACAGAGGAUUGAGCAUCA` has a bound/input enrichment of 0.662 ratio.
`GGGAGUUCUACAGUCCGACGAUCUGCACAUGCGCUAUCACCAAAACCAAACUGCCACUUUUCAAAUUUCAUUCAGAACCAUUUGUGUCUCCUAUUCCCUACCCUUCCCACCUGUUUCAAUGAUGAAAUAUUUCUGUUCUCCUUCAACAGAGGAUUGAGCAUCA` gave a bound/input enrichment of 1.48 ratio.
With `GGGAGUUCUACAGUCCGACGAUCUUUUUAAAUUUUUUUUUAAUUUAAGUUUUUCCUUUCAGGGGUAAAGUUUGCUUUACCAAAUAGUGAUUGUAACAAAUUGAUCUGUUUUGGAUGUUGCUAUAGUGACAUGCAGUUCUAUAUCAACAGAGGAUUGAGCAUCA` the bound/input enrichment was 0.799 ratio.
For `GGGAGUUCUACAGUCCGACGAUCAACUGUUGUGUGAAAUGUCUAUCCAGAUAAGUGUCACCUUAUAAAUAUUAUCAAAUAAUUUAGCUAGAUUCUUCUUAAGUAAUAAAUUAUUUGUCAAGCAUUUAAAGUGAAUUUGAAAUGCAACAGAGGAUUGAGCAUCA`, the bound/input enrichment was 0.242 ratio.
`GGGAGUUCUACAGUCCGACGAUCGUACUACCUGUGCGAAUUUCACAACACUGAAUGCAAAGUAGCAAUUUUCAUAGUCACAGUUAAAUAGCUUUAGGGCAAUAUUGCCUUGGUUUUACUCAUGUGCAGGUUUUAAAAAUGUACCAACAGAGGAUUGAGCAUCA` gave a bound/input enrichment of 1.18 ratio.
`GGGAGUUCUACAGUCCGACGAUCCUCCUAGCAUCAUACCAGCAUCUUCGCUAUCAGACGUGCACAGCUUACAAAGGAACAGUCUAGUGGUAUUGGUUAUUUUCAUUUCAAAACCUGCUUUUUUUUCCCAAGACUGAAAAAAGACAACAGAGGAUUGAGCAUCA` has a bound/input enrichment of 0.857 ratio.
`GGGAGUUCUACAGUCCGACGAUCAGAAAACUUUAACCGUGAAUCUGAAGGUAGAAAUACAGGUCCAUGGUUAUCUUCCUCGCUUAGAAAUAGAUGCACACCUUUGUUCUCUAGAAGGAGAAGAGAGGGAAGAGAUGAAUCUUCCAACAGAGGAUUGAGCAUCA` gave a bound/input enrichment of 0.754 ratio.
The bound/input enrichment of `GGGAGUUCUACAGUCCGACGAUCGGCGAGGCUGGGCUCCUGCUCACUGCCCACUCCUGCAUCCUGUCCUUCACUCCCCAUCACACAGCUCUGUGAGCAUGAAGUGCGUGGAGUUUGUGUGAAAUGGAACUGCCACCCAAGCCCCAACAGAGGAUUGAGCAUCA` is reported as 0.758 ratio.

Series 4
Target: Transcription factor SOX-2, HMG box (SOX2, Homo sapiens, UniProt P48431, residues 19-118)
Chain of UniProt P48431 (19-118, looked up): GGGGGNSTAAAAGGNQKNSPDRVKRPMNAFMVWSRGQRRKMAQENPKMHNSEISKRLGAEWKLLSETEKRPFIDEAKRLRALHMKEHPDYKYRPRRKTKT
Technique: protein-binding microarray
Form: double-stranded DNA, one strand shown
Sample: in vitro
Concentration: not given
Notes: k-mer, scored over probes, only values ≥0.25
Reading: higher = stronger binding
`GTGAAAA` has an E-score of 0.329.
`AATAGAA` has an E-score of 0.388.
With `ATGTAAT` the E-score was 0.299.
`ACAAAGG` has an E-score of 0.381.
`TAATGTA` gave an E-score of 0.296.
For `ATTGATA`, the E-score was 0.355.
For `ATAATGC`, the E-score was 0.309.
`ATAGAAA` gave an E-score of 0.281.
With `CAGACAA` the E-score was 0.331.
`CAATATA` gave an E-score of 0.358.
With `ACATTCA` the E-score was 0.388.
The E-score of `CAATTAA` is reported as 0.346.
With `ATAATAT` the E-score was 0.386.
For `CATAAAA`, the E-score was 0.255.
`AATGGCT` has an E-score of 0.281.
For `AAAAATT`, the E-score was 0.273.
`AACAATG` has an E-score of 0.478.

For quick reference, copied from above (series 4):
`TAATGTA` gave an E-score of 0.296.
For `ATTGATA`, the E-score was 0.355.
For `ATAATGC`, the E-score was 0.309.
`ATAGAAA` gave an E-score of 0.281.
With `CAGACAA` the E-score was 0.331.
`CAATATA` gave an E-score of 0.358.
